Literature values, collected from citations in different studies.
Protocols differ between the studies behind these lines. ± marks the error that the study gave.
Target: Sodium-dependent serotonin transporter (Slc6a4, Rattus norvegicus, UniProt P31652)
Chain of UniProt P31652 (whole entry, looked up): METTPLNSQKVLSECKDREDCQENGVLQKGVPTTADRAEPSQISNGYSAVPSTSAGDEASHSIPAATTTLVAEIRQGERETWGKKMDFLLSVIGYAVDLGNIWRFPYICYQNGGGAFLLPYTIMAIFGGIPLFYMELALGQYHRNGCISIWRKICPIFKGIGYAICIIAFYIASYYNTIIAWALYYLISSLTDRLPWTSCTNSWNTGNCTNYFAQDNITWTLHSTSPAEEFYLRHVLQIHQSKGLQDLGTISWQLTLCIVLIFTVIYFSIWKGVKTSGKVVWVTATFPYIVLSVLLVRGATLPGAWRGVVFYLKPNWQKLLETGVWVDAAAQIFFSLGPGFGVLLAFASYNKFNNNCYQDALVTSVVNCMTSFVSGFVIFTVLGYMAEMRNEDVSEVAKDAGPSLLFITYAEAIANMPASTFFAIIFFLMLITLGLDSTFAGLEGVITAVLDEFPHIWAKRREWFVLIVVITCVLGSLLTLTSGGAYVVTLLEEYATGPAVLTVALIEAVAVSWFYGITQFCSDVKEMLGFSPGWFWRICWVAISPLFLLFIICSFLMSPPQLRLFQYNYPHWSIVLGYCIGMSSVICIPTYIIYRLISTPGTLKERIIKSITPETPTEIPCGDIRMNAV

COc1ccc2[nH]cc(CCN(C)C(C)C)c2c1 — IC50: 6400 nM
CNC(C)C(=O)c1ccc(C)cc1 (centres unmarked) — IC50: 422 ± 26 nM
CC(NC1CC1)C(=O)c1ccc(Cl)c(Cl)c1 (centres unmarked) — EC50 (serotonin release, releaser; rat brain synaptosomes): 356 ± 96 nM
CNC(C)C(=O)c1ccc(C)cc1 (centres unmarked) — EC50 (substrate release, releaser; rat brain synaptosomes): 118 nM
COc1ccc2[nH]cc(CCN(C(C)C)C(C)C)c2c1 — IC50: 1800 nM
CNC(C)C(=O)c1ccccc1 (centres unmarked) — EC50 (substrate release, releaser; rat brain synaptosomes): 3860 nM
Cc1ccc(C(=O)C(C)NC2CC2)cc1Cl (centres unmarked) — EC50 (serotonin release, releaser; rat brain synaptosomes): 181 ± 31 nM
CCCC(C(=O)c1ccc2c(c1)OCO2)N1CCCC1 (centres unmarked) — IC50 (uptake; rat brain synaptosomes): 3350 ± 305 nM
